Measurements collected from several papers.
Target: Ephrin type-A receptor 3 (EPHA3, Homo sapiens, UniProt P29320)

| SMILES | assay | conditions | how to read | quantity | result |
| --- | --- | --- | --- | --- | --- |
| Cc1ccc(-c2c(/C=C(\C#N)C(=O)NC(C)C)n(CCCO)c3ncnc(N)c23)cc1 | cell-free assay, competition with immobilised ligand | 1 µM | – | remaining binding | 78% |
| C=CC(=O)Nc1cccc(-c2cnc3[nH]cc(C(=O)NC(C)(C)C)c3n2)c1 | enzyme activity, inhibitor | 0.1 µM | – | inhibition | -4% |
| COc1ccc(NC(=O)Nc2ccc3c(c2)C(=O)N(C(C)CO)CC(C)C(CN(C)Cc2ccc4c(c2)OCO4)O3)cc1 (stereo not drawn) | kinase activity | 0.03 µM | reference: control | remaining activity | 91% |
| COc1c(OCCCN2CCOCC2)ccc2c1N=C(NC(=O)c1cnc(N)nc1)N1CCN=C21 | kinase activity, inhibitor | 1 µM | reference: untreated control | remaining activity | 75% |
| Nc1ncc(-c2cc(-c3cnn(CC(F)(F)F)c3)ncc2F)nc1C(=O)NC1CNCC(F)C1 (stereo not drawn) | enzyme activity | 1 µM | reference: DMSO control | remaining activity | 88.5% |
| CCN1CCN(Cc2ccc(C(=O)Nc3ccc(C)c(NCc4cnc5[nH]ccc5c4OC)c3)cc2C(F)(F)F)CC1 | binding, competition with immobilised ligand | 1 µM | – | remaining binding | 19% |
| COCC12C(=O)NC3C4(C(OC)CC1O)C1CC5(O)C(OC)C(O)C(OC(C)=O)(C1C5OC(=O)c1ccccc1)C3(O)C(OC)C24 (stereo not drawn) | kinase activity, inhibitor, ProQinase kinase profiling | 25 µM | reference: control | remaining activity | 98% |
| NC(=O)[C@@H](O)C[C@H]1CCc2sc3ncnc(O[C@H]4CC[C@H](N5CCOCC5)CC4)c3c21 | enzyme activity, inhibitor | 10 µM | – | inhibition | 11% |
| C=CC(=O)N1CCCC(n2c(=O)c3ncccc3n(Cc3ccc(Oc4ccccc4)cc3)c2=O)C1 (stereo not drawn) | cell-free assay, competition with immobilised ligand | 1 µM | – | remaining binding | 100% |
| O=C(Cc1ccc(OCc2ccccc2)cc1)NC1(C(=O)O)CCN(C(=O)c2ccc(-c3cccc(Cl)c3)cc2)CC1 | enzyme activity, inhibitor | 10 µM | – | activity vs control | 85% |
| C=CC(=O)N1Cc2nc(-c3cc(-c4cc(Cl)cnc4Cl)c(F)cc3F)n(-c3ccncn3)c2C1 | cell-free assay | 1 µM | – | inhibition | -2.5% |
| O=C=[N][Ru-4]123([n]4c5ccc(O)cc5c5c6c(c7cc(F)c[n+]1c7c54)C(=O)NC6=O)[S+]1CC[S+]2CC[S+]3CC1 (stereo not drawn) | enzyme activity | 100 nM, human enzyme, with: 10 µM ATP | reference: untreated | remaining activity | 115% |
| C=CC(=O)N1CCc2ccc(-n3c(=O)ccc4cnc5ccc(-c6cnn(C)c6)cc5c43)cc21 | KINOMEscan | 1 µM | reference: DMSO control | remaining binding | 100% |
| Cc1nc2c(F)cc(-c3nc(Nc4ccc(CNC(=O)CCCCCCC(=O)NO)cc4)ncc3F)cc2n1C(C)C | enzyme activity, inhibitor | 1 µM | – | inhibition | 60% |
| Cc1cccc(O[C@H]2CCC[C@@H](C(C)CNCc3ccncc3)C2)c1 (relative stereo) | cell-free assay | 10 µM | – | inhibition | -9% |

Repeated from above:
| SMILES | assay | conditions | how to read | quantity | result |
| --- | --- | --- | --- | --- | --- |
| O=C(Cc1ccc(OCc2ccccc2)cc1)NC1(C(=O)O)CCN(C(=O)c2ccc(-c3cccc(Cl)c3)cc2)CC1 | enzyme activity, inhibitor | 10 µM | – | activity vs control | 85% |
